# Literature values that unrelated publications cite.
# Chains of the proteins cited; added tags and fusions are not shown.
# UniProt P31652, whole entry: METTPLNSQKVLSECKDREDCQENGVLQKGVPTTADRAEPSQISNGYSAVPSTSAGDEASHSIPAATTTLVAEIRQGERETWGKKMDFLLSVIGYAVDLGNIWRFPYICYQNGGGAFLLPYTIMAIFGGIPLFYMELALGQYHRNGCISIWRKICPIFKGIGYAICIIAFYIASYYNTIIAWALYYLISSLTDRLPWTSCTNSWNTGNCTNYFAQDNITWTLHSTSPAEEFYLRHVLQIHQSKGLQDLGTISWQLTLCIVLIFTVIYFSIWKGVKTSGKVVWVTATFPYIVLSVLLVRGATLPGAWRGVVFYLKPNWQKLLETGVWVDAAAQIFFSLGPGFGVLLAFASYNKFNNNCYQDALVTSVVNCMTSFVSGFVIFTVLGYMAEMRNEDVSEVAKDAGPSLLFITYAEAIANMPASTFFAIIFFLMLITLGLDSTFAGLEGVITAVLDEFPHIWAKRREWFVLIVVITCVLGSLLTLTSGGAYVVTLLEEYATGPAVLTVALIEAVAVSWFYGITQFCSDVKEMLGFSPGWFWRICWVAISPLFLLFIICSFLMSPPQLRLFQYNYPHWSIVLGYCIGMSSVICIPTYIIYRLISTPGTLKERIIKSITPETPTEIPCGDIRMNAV
# UniProt P9WPP7, whole entry: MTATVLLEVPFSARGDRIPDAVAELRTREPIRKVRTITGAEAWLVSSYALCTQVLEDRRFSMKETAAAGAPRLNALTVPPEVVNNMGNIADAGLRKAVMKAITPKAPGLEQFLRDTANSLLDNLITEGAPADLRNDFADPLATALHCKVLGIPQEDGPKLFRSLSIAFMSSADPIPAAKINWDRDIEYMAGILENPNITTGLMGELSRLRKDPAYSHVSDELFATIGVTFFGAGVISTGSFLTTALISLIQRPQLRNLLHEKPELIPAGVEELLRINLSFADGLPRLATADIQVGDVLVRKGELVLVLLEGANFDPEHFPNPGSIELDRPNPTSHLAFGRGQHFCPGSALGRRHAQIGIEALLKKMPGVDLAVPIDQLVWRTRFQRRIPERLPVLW
# UniProt P33261, whole entry: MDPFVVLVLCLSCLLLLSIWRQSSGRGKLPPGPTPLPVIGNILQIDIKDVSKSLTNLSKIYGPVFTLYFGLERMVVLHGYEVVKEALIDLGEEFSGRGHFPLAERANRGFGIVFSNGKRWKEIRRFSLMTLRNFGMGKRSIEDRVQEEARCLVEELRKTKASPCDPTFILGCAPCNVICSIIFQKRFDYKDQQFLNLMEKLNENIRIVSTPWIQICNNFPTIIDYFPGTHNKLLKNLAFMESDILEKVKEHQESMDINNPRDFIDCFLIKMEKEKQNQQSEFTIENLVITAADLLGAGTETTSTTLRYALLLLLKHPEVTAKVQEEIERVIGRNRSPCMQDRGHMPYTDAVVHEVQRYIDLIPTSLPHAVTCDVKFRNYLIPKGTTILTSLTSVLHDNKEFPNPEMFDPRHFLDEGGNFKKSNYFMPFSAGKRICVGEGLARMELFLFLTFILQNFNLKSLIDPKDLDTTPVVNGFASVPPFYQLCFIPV
# UniProt P41595, whole entry: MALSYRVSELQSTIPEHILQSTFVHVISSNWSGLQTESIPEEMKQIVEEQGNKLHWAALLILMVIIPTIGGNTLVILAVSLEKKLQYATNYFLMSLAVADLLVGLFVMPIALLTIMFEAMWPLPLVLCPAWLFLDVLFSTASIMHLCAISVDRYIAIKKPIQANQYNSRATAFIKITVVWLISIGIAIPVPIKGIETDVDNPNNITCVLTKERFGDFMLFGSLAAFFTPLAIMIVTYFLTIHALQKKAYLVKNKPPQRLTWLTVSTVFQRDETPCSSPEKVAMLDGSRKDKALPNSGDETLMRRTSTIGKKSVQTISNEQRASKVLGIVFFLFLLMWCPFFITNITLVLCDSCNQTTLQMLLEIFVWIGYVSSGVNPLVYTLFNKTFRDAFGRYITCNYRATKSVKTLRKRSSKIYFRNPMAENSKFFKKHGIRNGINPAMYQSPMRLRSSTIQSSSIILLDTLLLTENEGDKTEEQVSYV
# UniProt P40306, whole entry, looked up: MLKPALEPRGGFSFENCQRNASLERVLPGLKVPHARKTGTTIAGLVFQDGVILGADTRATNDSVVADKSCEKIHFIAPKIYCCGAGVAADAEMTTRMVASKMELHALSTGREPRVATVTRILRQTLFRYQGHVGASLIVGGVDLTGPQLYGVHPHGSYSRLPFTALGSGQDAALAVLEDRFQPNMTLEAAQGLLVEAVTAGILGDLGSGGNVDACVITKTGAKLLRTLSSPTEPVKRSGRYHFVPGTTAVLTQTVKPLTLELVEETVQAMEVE
# UniProt P49720, whole entry, looked up: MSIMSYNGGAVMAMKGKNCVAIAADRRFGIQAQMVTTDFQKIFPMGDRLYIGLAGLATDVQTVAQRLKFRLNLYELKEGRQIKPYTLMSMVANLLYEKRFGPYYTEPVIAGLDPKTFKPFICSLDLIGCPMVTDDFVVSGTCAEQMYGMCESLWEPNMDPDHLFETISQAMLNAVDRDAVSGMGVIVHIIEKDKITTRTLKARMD
# UniProt P9WHE9, whole entry: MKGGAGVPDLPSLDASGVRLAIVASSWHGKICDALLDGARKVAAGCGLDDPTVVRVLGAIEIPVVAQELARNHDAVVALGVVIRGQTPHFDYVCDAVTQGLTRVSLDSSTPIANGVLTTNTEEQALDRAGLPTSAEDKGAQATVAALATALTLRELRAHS
# UniProt P41145, whole entry: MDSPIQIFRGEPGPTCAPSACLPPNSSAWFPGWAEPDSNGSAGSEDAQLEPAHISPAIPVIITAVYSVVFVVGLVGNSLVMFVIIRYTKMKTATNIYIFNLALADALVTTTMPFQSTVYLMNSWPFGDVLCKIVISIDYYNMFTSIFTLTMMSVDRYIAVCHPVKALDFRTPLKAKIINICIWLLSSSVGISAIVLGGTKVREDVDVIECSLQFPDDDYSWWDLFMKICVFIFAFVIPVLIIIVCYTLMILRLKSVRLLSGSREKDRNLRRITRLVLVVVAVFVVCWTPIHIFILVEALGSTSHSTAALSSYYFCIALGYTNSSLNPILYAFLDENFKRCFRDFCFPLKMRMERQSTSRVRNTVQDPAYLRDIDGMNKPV
# Each line is one published result; not all experiments were run side by side. Numbers after ± are the reported error.
Compound,target or system,test,system,conditions,scale,endpoint,value
Clc1ccc(COC2(c3ccccc3)CC3CCC(C2)N3)cc1Cl (stereo not shown),"Slc6a4 (Rattus norvegicus, UniProt P31652)",,,,relative to: Ki DAT over Ki SERT,selectivity ratio,258
CC[C@H](C)[C@H](NC(=O)[C@H](CCCNC(=N)N)NC(=O)[C@H](CC(C)C)NC(=O)[C@@H](N)Cc1ccccc1)C(=O)N[C@@H](CCCNC(=N)N)C(=O)N1CCC[C@H]1C(=O)N[C@@H](CCCCN)C(=O)O,,,rat plasma,,,half-life,< 1 h
c1cc[n+](CCCCCCCCCC[n+]2ccccc2)cc1,,,mouse,"intramuscular, 24 h",,LD50,63.9 mg/kg
c1cn(Cc2ccc(-c3ccc4c(c3)OCCO4)cc2)cn1,"cyp121 (Mycobacterium tuberculosis, UniProt P9WPP7)",,,,,Kd,5.3 ± 0.6 µM
C=CC[N+](C)(C)c1ccc(CCC(=O)CCc2ccc([N+](C)(C)CC=C)cc2)cc1,HeLa,"cytotoxicity, MTT",,,,IC50,> 3000 µM
NCCNCCSc1ccccc1,,,urine,"1 µg/mL, 30 days, -20 °C",,long-term stability,94.1 ± 1.77 % remaining
c1ccc2c(c1)ccc[n+]2CCCCCCCCCC[n+]1cccc2ccccc21,ACHN,"cytotoxicity, MTT",,,,IC50,1710 µM
Ic1ccc(CSCn2ccnc2)cc1,"CYP2C19 (Homo sapiens, UniProt P33261)",,,,,Ki,0.0191 µM
O=c1c2ccc(Oc3ccc(OC(F)(F)F)cc3)cc2[nH]c2cc(Cl)cc(F)c12,,,plasma,"oral, 80 mg/kg, single dose",,Cmax,17.2 ng/mL
Cc1cc(C)c2c(N)c(C(=O)NCc3ccc4c(c3)OCO4)sc2n1,,,rat liver microsomes,90 min,,remaining parent compound,< 10%
Nc1nc(Cl)nc2c1ncn2[C@H]1[C@H](O)[C@H](O)[C@]2(CO)C[C@H]12,"HTR2B (Homo sapiens, UniProt P41595)",,,"10 µM, added: [3H]LSD",,inhibition,50%
CC(=O)N1CCC[C@@H]1C(=O)N[C@@H](C)C(=O)N[C@@H](Cc1ccccc1)B(O)O,"Proteasome subunit beta type-10 / Proteasome subunit beta type-3 (Homo sapiens, UniProt P40306+P49720)","β2i activity, inhibitor",,,,IC50,> 10 µM
NC1=NC2(CCCCC2)N(c2ccc(OCc3cn(CCCCOc4ccc5ccc(=O)oc5c4)nn3)cc2)C(N)=N1,red blood cells,hemolysis,,,relative to: hemolytic LC50 over MIC50,selectivity index,> 4000
CN(CCNCc1cc(Cl)cc(Cl)c1)c1nc2nc(Cl)ccc2[nH]1,Hep G2,,,,,CC50,39.2 µM
CNCC(=O)N[C@@H](Cc1c[nH]c2ccccc12)C(=O)N[C@H](C(=O)N[C@@H](CC(C)C)C(=O)N[C@@H](CC(N)=O)C(=O)N[C@@H](CO)C(=O)N[C@@H](C)C(=O)NCC(=O)N[C@@H](Cc1ccc(O)cc1)C(=O)N[C@@H](CC(C)C)C(=O)N[C@@H](CC(C)C)C(=O)NCC(=O)N1CCC[C@H]1C(=O)N[C@@H](CCCCN)C(=O)N[C@@H](CCCCN)C(=O)N[C@@H](CCCCN)C(=O)N[C@@H](CCCCN)C(N)=O)[C@@H](C)O,,HPLC retention calibrated,octanol/PBS,,,logD,0.34
CCC(=O)Nc1c(NC[C@H](O)[C@H](O)[C@H](O)CO)[nH]c(=O)[nH]c1=O,"ribH (Mycobacterium tuberculosis, UniProt P9WHE9)",substrate,,pH 7.0,,Ks,58 ± 8 µM
Cc1cc(O)cc(C)c1C[C@H](N)C(=O)N[C@@H]1CCNc2ccc(CC3Cc4ccccc4C3)cc21,"OPRK1 (Homo sapiens, UniProt P41145)",agonist,,,relative to: U-69593 at 10 µM,maximal stimulation,38%
c1ccc2c[n+](CCCCCCCC[n+]3ccc4ccccc4c3)ccc2c1,,,rat,"intramuscular, 24 h",,LD50,56.2 mg/kg
CN(C(=O)Cc1ccc(Cl)c(Cl)c1)[C@@H]1CCCC[C@H]1N1CCCC1,,,mouse,"oral, 150 mg/kg",,time above EC99,4 h

# For quick reference, copied from above:
Compound,target or system,test,system,conditions,scale,endpoint,value
Cc1cc(O)cc(C)c1C[C@H](N)C(=O)N[C@@H]1CCNc2ccc(CC3Cc4ccccc4C3)cc21,"OPRK1 (Homo sapiens, UniProt P41145)",agonist,,,relative to: U-69593 at 10 µM,maximal stimulation,38%
c1cc[n+](CCCCCCCCCC[n+]2ccccc2)cc1,,,mouse,"intramuscular, 24 h",,LD50,63.9 mg/kg
CC[C@H](C)[C@H](NC(=O)[C@H](CCCNC(=N)N)NC(=O)[C@H](CC(C)C)NC(=O)[C@@H](N)Cc1ccccc1)C(=O)N[C@@H](CCCNC(=N)N)C(=O)N1CCC[C@H]1C(=O)N[C@@H](CCCCN)C(=O)O,,,rat plasma,,,half-life,< 1 h
